Measured values collected from several papers.
Protocols differ between the studies behind these lines.
Route: oral

Compound | system | conditions | measurement | result
CS(=O)(=O)n1cc2c(n1)CN([C@H]1CO[C@H](c3cc(F)ccc3F)[C@@H](N)C1)C2 | male human, plasma | 12.5 mg, single dose, fasted, healthy volunteers | AUC(0-t) | 10.6 µM·h
O=C(NCCN1CCCC1)c1cc(-c2ccc(CN3CCOCC3)cc2)nc2ccc(F)cc12 | human, blood | 400 mg, single dose, whole blood | AUC(0-t) | 5830 ng·h/mL
CCn1c(C(=O)c2cc(C)cc(C#N)c2)c(C(C)C)c(=O)[nH]c1=O | human, plasma | 600 mg, multiple doses, once daily, steady state, healthy volunteers | AUC | 10200 ng·h/mL
Nc1ccc(-c2nc([C@H]3CCc4cc(-c5cc(Cl)ccc5-n5cnnn5)cc(=O)n43)c(F)[nH]2)c(F)n1 | human, plasma | 20 mg, single dose, fasted | AUC(0-inf) | 3410 ng·h/mL
CCCCCN1C[C@H](O)[C@@H](O)[C@H](O)[C@@H]1CO | human, plasma | 30 mg, single dose, fasted, healthy volunteers | AUC(0-t) | 1070 ng·h/mL
CCOc1ccc(Cc2cc([C@@H]3S[C@H](CO)[C@@H](O)[C@H](O)[C@H]3O)c(OC)cc2C)cc1 | human, plasma | 3 mg, single dose, fasted, healthy volunteers | AUC(0-inf) | 1000 ng·h/mL
COc1cccc(-c2ccc(NC(=O)C3=C(C(=O)O)CCC3)c(F)c2)c1 | male human, plasma | 10 mg, single dose, fasted, healthy volunteers | AUC(0-inf) | 41000 ng·h/mL
O=C(c1nc2n(n1)[C@H](c1ccccc1)C[C@@H]2F)C1CC1 | human, plasma | 225 mg, single dose, fasted, healthy volunteers | AUC(0-inf) | 46800 ng·h/mL
CS(=O)(=O)n1cc2c(n1)CN([C@H]1CO[C@H](c3cc(F)ccc3F)[C@@H](N)C1)C2 | male human, plasma | 100 mg, single dose, fasted | AUC(0-inf) | 98.9 µM·h
C[C@@H]1CCC[C@H](n2cnc(-c3cc(Cl)ccc3-n3cc(Cl)nn3)cc2=O)c2cc(ccn2)-c2c(cnn2C(F)F)NC1=O | human, plasma | 500 mg, single dose, fed, healthy volunteers | AUC(0-inf) | 44800 ng·h/mL

For quick reference, copied from above:
Compound | system | conditions | measurement | result
COc1cccc(-c2ccc(NC(=O)C3=C(C(=O)O)CCC3)c(F)c2)c1 | male human, plasma | 10 mg, single dose, fasted, healthy volunteers | AUC(0-inf) | 41000 ng·h/mL
